Values quoted from earlier work, collected from citations in different studies.
Protocols differ between the studies behind these lines.
B1: erenumab; V domains shown; sequence looked up; VH QVQLVESGGGVVQPGRSLRLSCAASGFTFSSFGMHWVRQAPGKGLEWVAVISFDGSIKYSVDSVKGRFTISRDNSKNTLFLQMNSLRAEDTAVYYCARDRLNYYDSSGYYHYKYYGMAVWGQGTTVTVSS; VL QSVLTQPPSVSAAPGQKVTISCSGSSSNIGNNYVSWYQQLPGTAPKLLIYDNNKRPSGIPDRFSGSKSGTSTTLGITGLQTGDEADYYCGTWDSRLSAVVFGGGTKLTVL
B2: CCL1; sequence looked up; chain KSMQVPFSRCCFSFAEQEIPLRAILCYRNTSSICSNEGLIFKLKRGKEACALDTVGWVQRHRKMLRHCPSKRK

| Substance | tested on | test | system | conditions | endpoint | value |
| --- | --- | --- | --- | --- | --- | --- |
| amivantamab |  | clinical trial | human, NSCLC patients | dose not given | patients with rash | 86% |
| DKLISILSLLSKRRKADGFRVKKTQKSSAYKKRF | Escherichia coli |  | peptide, DH5α |  | MIC | 6 µM |
| indirubin-3'-monoxime | HUVEC | tube formation |  |  | IC50 | 6.5 µM |
| insulin icodec |  |  | White patients with type 1 diabetes, serum | geometric mean | half-life at steady state | 175 h |
| insulin degludec |  |  |  |  | half-life | 25.4 h |
| Liraglutide |  |  | circulation |  | half-life | 15 h |
| B1 (erenumab) |  |  | antibody | concentration not given | hypertension incidence | 43% |
| DRDRPECSTMVKYEQKLPSLGKYALKRAIKIKFGRK | Escherichia coli |  | peptide, DH5α |  | MIC | 12 µM |
| pegcetacoplan |  |  | human | 270 mg/day for 28 days (3.9 mg/kg), arithmetic mean | Cmax | 670 µg/mL |
| dulaglutide |  |  | human | 1.5 mg once weekly, steady state | clearance | 0.107 L/h |
| B2 (CCL1) | CCR8 S110W mutant | IP accumulation, agonist |  |  | EC50 | > 1 µM |
| albiglutide |  |  | human | once weekly dosing | tmax | 72 to 96 h |
| insulin degludec |  | population PK model |  | fixed from prior estimate | absorption rate constant | 0.0382 h⁻¹ |

A few entries again:
| Substance | tested on | test | system | conditions | endpoint | value |
| --- | --- | --- | --- | --- | --- | --- |
| indirubin-3'-monoxime | HUVEC | tube formation |  |  | IC50 | 6.5 µM |
| insulin icodec |  |  | White patients with type 1 diabetes, serum | geometric mean | half-life at steady state | 175 h |
